Experimental data gathered from unrelated publications.
Parts stem from different laboratories: compare values within a part only. “And” joins repeats or separate records; there may be more than shown.
Chain of UniProt P53667 (whole entry, looked up): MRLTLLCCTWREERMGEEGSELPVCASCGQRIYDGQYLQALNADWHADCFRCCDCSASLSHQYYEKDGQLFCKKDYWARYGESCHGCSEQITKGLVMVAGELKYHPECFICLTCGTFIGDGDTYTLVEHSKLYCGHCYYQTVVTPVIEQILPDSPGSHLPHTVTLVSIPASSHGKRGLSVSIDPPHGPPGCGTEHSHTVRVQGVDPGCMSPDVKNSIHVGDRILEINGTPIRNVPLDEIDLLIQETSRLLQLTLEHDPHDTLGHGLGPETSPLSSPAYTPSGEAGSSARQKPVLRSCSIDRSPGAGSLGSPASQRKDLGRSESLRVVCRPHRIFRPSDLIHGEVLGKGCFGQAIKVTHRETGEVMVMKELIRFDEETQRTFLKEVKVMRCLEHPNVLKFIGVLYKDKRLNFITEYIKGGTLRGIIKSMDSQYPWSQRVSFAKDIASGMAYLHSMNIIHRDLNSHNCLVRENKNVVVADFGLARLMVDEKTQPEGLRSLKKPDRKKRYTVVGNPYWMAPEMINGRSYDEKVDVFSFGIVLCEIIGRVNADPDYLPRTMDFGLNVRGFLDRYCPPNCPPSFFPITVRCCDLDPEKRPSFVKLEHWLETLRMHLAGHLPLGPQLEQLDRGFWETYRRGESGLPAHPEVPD
Chain of UniProt P49759 (whole entry, looked up): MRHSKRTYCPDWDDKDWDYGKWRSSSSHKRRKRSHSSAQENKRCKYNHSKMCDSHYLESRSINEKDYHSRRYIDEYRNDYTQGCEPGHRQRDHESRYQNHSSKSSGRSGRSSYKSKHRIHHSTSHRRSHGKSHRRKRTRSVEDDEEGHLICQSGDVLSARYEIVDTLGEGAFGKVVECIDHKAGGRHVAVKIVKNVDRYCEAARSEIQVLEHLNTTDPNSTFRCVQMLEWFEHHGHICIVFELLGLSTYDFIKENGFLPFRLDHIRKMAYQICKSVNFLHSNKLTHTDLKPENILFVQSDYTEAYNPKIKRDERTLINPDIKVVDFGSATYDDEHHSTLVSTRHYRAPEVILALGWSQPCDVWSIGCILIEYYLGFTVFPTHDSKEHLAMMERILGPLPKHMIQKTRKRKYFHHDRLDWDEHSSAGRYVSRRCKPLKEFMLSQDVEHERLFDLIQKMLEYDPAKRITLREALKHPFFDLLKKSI
Chain of UniProt Q9UEE5 (whole entry, looked up): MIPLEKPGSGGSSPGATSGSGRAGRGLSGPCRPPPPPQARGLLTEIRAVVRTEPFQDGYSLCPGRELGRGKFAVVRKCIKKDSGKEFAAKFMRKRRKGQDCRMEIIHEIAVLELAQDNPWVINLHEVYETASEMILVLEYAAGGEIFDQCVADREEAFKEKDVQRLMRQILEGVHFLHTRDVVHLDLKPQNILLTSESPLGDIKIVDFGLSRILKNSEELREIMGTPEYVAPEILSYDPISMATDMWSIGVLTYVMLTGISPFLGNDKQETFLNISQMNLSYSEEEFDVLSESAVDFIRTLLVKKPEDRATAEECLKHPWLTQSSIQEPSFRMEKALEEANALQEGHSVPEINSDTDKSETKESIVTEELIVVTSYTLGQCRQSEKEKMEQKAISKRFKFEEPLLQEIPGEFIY
Chain of UniProt Q15375 (whole entry, looked up): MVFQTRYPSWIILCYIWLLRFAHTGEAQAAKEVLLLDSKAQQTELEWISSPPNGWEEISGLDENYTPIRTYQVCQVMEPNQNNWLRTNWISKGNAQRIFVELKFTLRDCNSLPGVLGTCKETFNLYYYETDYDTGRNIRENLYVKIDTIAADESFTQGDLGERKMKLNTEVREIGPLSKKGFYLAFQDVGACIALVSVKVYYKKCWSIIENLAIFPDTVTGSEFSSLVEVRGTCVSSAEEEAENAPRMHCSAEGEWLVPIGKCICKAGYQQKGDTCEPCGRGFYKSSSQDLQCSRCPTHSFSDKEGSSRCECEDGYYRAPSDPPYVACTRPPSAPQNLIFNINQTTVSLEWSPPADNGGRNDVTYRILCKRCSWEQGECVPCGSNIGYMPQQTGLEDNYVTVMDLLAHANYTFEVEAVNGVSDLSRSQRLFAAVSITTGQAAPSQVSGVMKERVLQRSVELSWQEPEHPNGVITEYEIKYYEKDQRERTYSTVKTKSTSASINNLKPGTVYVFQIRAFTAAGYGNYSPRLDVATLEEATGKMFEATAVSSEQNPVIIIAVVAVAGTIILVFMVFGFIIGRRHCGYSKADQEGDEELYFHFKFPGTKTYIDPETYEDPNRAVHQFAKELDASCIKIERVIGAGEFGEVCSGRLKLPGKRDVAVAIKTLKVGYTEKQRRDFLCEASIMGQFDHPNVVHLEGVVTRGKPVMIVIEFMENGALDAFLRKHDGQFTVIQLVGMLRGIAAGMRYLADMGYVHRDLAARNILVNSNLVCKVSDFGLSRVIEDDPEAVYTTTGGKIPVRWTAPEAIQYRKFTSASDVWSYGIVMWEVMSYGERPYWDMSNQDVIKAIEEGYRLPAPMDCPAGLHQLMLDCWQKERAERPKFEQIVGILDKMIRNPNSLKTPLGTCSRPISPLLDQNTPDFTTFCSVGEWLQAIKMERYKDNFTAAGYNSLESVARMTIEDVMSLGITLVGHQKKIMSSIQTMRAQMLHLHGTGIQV
Chain of UniProt P04629 (whole entry, looked up): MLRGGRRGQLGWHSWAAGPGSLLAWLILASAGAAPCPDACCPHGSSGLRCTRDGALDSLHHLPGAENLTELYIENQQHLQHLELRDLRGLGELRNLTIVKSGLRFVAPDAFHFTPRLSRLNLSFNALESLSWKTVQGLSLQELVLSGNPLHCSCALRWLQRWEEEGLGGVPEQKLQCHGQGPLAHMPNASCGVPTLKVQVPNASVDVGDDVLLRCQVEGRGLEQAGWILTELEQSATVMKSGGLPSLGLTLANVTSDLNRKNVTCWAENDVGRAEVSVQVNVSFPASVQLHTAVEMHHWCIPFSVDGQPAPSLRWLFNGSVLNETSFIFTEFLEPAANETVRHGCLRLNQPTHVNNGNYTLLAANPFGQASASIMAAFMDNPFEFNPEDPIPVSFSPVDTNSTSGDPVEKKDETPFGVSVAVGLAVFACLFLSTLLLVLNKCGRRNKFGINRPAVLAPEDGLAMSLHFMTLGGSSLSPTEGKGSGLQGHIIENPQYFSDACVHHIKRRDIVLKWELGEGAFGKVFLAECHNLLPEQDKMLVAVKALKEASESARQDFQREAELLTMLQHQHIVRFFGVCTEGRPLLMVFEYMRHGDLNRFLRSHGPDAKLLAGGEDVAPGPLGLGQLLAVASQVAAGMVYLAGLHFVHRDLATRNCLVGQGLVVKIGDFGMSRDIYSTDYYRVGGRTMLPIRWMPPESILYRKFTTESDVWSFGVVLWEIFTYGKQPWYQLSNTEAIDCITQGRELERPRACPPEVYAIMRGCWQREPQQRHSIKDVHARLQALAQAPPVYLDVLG

Block 1
SMILES: CC[C@@]1(c2cccc(C(F)(F)F)c2)C2=C(Nc3n[nH]cc31)[C@H](F)C(C)(C)CC2=O (single isomer, unassigned)
Tested at: 1 µM
target	test	scale	remaining binding [%]
Cyclin-dependent kinase 18 (CDK18, Homo sapiens, UniProt Q07002)	binding, competition with immobilised ligand		100
Misshapen-like kinase 1 (MINK1, Homo sapiens, UniProt Q8N4C8)	kinase binding, KINOMEscan	baseline: DMSO control	100
Dual specificity mitogen-activated protein kinase kinase 6 (MAP2K6, Homo sapiens, UniProt P52564)	kinase binding, KINOMEscan	baseline: DMSO control	89
Tyrosine-protein kinase ABL1, phosphorylated (ABL1, Homo sapiens, UniProt P00519, F317L)	binding, competition with immobilised ligand		79
Testis-specific serine/threonine-protein kinase 1 (TSSK1B, Homo sapiens, UniProt Q9BXA7)	kinase binding, KINOMEscan	baseline: DMSO control	85
Serine/threonine-protein kinase pim-3 (PIM3, Homo sapiens, UniProt Q86V86)	kinase binding, KINOMEscan	baseline: DMSO control	100
LIM domain kinase 1 (LIMK1, Homo sapiens, UniProt P53667)	binding, competition with immobilised ligand		94
Serine/threonine-protein kinase SIK2 (SIK2, Homo sapiens, UniProt Q9H0K1)	binding, competition with immobilised ligand		83
Mitogen-activated protein kinase 8 (MAPK8, Homo sapiens, UniProt P45983)	binding, competition with immobilised ligand		80
Serine/threonine-protein kinase 17A (STK17A, Homo sapiens, UniProt Q9UEE5)	binding, competition with immobilised ligand		90
Muscle, skeletal receptor tyrosine-protein kinase (MUSK, Homo sapiens, UniProt O15146)	kinase binding, KINOMEscan	baseline: DMSO control	97
Casein kinase I isoform alpha-like (CSNK1A1L, Homo sapiens, UniProt Q8N752)	kinase binding, KINOMEscan	baseline: DMSO control	100
Serine/threonine-protein kinase D1 (PRKD1, Homo sapiens, UniProt Q15139)	binding, competition with immobilised ligand		90

Block 2
SMILES: C[C@@H]1CN(c2ccc(-c3cc(C(=O)NCCOCCOCCOCCOCCNC(=O)/C=C/c4[nH]cc(C(=O)N[C@@H](CC(N)=O)c5ccc(F)c(Cl)c5)c4-c4ccc(Cl)cc4F)ccc3F)cc2NC(=O)c2c[nH]c(=O)cc2C(F)(F)F)C[C@H](C)N1C
Effect on: thermal unfolding
Method: differential scanning fluorimetry
Tested at: 5.5 µM
Reading: higher = more unfolded
WDR5: WD repeat-containing protein 5 (WDR5, Homo sapiens, UniProt P61964)
DCAF1: DDB1- and CUL4-associated factor 1 (DCAF1, Homo sapiens, UniProt Q9Y4B6)
Chain of UniProt Q9Y4B6 (whole entry, looked up): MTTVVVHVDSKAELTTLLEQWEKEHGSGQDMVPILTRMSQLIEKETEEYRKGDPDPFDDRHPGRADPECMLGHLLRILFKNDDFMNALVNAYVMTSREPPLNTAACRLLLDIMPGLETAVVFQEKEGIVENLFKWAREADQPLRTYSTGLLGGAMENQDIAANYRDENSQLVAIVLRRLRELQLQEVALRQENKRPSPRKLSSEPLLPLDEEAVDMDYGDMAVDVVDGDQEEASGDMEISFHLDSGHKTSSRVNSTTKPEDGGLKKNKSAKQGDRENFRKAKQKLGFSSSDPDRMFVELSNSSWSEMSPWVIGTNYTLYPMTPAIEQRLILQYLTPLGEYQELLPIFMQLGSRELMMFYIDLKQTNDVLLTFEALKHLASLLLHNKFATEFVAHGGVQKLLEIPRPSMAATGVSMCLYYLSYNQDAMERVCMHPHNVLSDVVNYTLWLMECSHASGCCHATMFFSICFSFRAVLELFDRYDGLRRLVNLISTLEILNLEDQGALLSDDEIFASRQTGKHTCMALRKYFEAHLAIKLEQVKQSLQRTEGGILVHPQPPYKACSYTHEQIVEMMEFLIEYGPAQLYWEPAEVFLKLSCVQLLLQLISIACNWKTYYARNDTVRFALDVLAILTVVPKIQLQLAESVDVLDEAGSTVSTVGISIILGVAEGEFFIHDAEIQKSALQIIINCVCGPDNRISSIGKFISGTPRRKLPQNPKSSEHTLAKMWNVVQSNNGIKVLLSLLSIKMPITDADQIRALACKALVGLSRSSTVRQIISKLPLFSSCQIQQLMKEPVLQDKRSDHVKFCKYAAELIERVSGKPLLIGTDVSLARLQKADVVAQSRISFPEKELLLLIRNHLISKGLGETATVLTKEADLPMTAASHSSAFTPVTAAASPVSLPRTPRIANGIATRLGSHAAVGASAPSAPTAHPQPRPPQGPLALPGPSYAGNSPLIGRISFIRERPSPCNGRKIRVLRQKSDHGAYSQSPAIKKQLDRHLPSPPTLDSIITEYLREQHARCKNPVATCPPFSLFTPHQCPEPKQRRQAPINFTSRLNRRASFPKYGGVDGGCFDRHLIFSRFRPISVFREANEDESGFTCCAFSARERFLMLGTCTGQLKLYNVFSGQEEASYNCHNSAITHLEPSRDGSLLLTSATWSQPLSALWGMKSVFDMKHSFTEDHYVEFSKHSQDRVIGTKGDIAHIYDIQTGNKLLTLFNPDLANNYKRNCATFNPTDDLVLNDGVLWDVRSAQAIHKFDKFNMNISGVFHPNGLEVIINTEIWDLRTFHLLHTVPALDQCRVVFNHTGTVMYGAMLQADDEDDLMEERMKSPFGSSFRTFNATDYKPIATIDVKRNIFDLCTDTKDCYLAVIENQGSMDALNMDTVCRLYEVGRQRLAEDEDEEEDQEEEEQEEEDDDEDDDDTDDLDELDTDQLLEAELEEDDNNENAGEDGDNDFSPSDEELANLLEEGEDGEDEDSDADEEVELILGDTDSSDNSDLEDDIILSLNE
target	conditions	SYPRO Orange fluorescence [a.u.]
WDR5	89.21 °C	52000
DCAF1	59.41 °C	37800
WDR5	75.61 °C	27300
DCAF1	73.61 °C	51600
DCAF1	56.41 °C	25200
DCAF1	32.4 °C	9740
DCAF1	60.21 °C	41700
DCAF1	92.81 °C	31800

Block 3
Structure (SMILES): O=C(O)C1(O)Oc2cc(F)ccc2N(Cc2ccccc2)C1=O (stereo not drawn)
organism	test	test system	conditions	scale	inhibition
Arabidopsis thaliana	hypocotyl length	Col-0	6.25 µg/mL, 7 days, seed germination, dark		32.7%
Echinochloa crus-galli	fresh weight		150 g ai/ha, post-emergence treatment		58.5% and 59.4% and 59.7%
Arabidopsis thaliana	root length	Col-0	50.0 µg/mL, 7 days, seed germination, dark		99.2%
Abutilon theophrasti	fresh weight		150 g ai/ha, pre-emergence treatment		70.5% and 72.5% and 72.4%
Triticum aestivum	fresh weight		soil surface spray, 150 g ai/ha, 21 days, pre-emergence crop safety		21.3% and 20.5% and 19.7%
Arabidopsis thaliana	root length	Col-0, seedlings	3.125 µg/mL	baseline: water control	41.1%
Eclipta prostrata	fresh weight		150 g ai/ha, post-emergence treatment		89.2% and 87.6% and 86.6%
Arabidopsis thaliana	hypocotyl length	Col-0, seedlings	6.25 µg/mL		32.7%
Arabidopsis thaliana	hypocotyl length	Col-0	3.125 µg/mL, 7 days, seed germination, dark		21.9%
Arabidopsis thaliana	hypocotyl length	Col-0, seedlings	50 µg/mL, with BCAA		7.36%
Alopecurus japonicus	fresh weight		150 g ai/ha, pre-emergence treatment		62.3% and 63.2% and 60.8%
Arabidopsis thaliana	root length	Col-0	3.13 µg/mL, 7 days, seed germination, dark		41.1%
Arabidopsis thaliana	hypocotyl length	Col-0	50.0 µg/mL, 7 days, seed germination, dark		95.7%
Arabidopsis thaliana	hypocotyl length	Col-0, seedlings	3.125 µg/mL		21.9%
Arabidopsis thaliana	root length	Col-0, seedlings	100 µg/mL	baseline: water control	99.2%
Arabidopsis thaliana	hypocotyl length	Col-0, seedlings	25 µg/mL		59.4%
Arabidopsis thaliana	root length	Col-0, seedlings	100 µg/mL		99.2%
Arabidopsis thaliana	root length	Col-0, seedlings	12.5 µg/mL		73.4%

Block 4
SMILES: COc1cc(-c2nc3ccc(C(=O)NCCCN(C)C)cc3n2C2CCC2)cc(OC)c1OC
Effect on: binding
Method: competition with immobilised ligand
Tested at: 1 µM
target	remaining binding [%]
Death-associated protein kinase 3 (DAPK3, Homo sapiens, UniProt O43293)	96
Activin receptor type-2B (ACVR2B, Homo sapiens, UniProt Q13705)	100
Maternal embryonic leucine zipper kinase (MELK, Homo sapiens, UniProt Q14680)	84
Fibroblast growth factor receptor 1 (FGFR1, Homo sapiens, UniProt P11362)	58
Casein kinase I isoform epsilon (CSNK1E, Homo sapiens, UniProt P49674)	100
Ephrin type-A receptor 7 (EPHA7, Homo sapiens, UniProt Q15375)	94
Ribosomal protein S6 kinase alpha-1, N-terminal kinase domain (RPS6KA1, Homo sapiens, UniProt Q15418)	81
Mitogen-activated protein kinase 6 (MAPK6, Homo sapiens, UniProt Q16659)	84
Tyrosine-protein kinase JAK2, JH1 (JAK2, Homo sapiens, UniProt O60674)	100
Epidermal growth factor receptor (EGFR, Homo sapiens, UniProt P00533, T790M)	93
High affinity nerve growth factor receptor (NTRK1, Homo sapiens, UniProt P04629)	90
Tyrosine-protein kinase ABL1, phosphorylated (ABL1, Homo sapiens, UniProt P00519, T315I)	46
Tyrosine-protein kinase ABL1, non-phosphorylated (ABL1, Homo sapiens, UniProt P00519)	46
Fibroblast growth factor receptor 2 (FGFR2, Homo sapiens, UniProt P21802)	90
Calcium/calmodulin-dependent protein kinase type 1B (PNCK, Homo sapiens, UniProt Q6P2M8)	90
Dual specificity protein kinase CLK1 (CLK1, Homo sapiens, UniProt P49759)	97
LIM domain kinase 1 (LIMK1, Homo sapiens, UniProt P53667)	79
Serine/threonine-protein kinase Nek2 (NEK2, Homo sapiens, UniProt P51955)	85

Repeated from above (block 2):
target	conditions	SYPRO Orange fluorescence [a.u.]
DCAF1	73.61 °C	51600
DCAF1	92.81 °C	31800
DCAF1	32.4 °C	9740
DCAF1	59.41 °C	37800
WDR5	89.21 °C	52000
WDR5	75.61 °C	27300
DCAF1	60.21 °C	41700
